# Results pooled from the literature.
# Compare with care: the assays were run in different laboratories.
# PRKG2: cGMP-dependent protein kinase 2 (PRKG2, Homo sapiens, UniProt Q13237)
# Chain of UniProt Q13237 (whole entry, looked up): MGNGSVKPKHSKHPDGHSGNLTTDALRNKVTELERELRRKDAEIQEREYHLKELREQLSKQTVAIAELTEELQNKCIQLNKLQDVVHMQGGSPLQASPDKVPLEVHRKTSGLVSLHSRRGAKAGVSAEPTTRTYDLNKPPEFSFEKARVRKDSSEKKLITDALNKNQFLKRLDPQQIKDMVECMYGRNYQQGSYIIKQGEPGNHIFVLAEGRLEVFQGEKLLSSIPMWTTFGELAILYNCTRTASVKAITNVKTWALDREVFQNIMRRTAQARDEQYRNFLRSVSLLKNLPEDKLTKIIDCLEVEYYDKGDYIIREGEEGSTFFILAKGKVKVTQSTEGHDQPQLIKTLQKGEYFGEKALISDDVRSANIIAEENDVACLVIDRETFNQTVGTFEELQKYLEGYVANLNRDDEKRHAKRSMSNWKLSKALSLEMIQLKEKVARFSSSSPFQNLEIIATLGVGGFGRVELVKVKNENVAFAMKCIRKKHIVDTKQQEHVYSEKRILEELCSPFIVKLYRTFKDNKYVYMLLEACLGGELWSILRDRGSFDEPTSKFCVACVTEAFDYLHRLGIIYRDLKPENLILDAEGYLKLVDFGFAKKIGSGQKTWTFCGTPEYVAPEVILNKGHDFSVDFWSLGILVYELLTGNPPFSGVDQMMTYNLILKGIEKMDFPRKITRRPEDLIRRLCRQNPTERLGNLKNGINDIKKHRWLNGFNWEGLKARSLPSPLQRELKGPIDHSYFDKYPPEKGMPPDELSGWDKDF
# CA9: Carbonic anhydrase 9 (CA9, Homo sapiens, UniProt Q16790)
# Chain of UniProt P11802 (whole entry, looked up): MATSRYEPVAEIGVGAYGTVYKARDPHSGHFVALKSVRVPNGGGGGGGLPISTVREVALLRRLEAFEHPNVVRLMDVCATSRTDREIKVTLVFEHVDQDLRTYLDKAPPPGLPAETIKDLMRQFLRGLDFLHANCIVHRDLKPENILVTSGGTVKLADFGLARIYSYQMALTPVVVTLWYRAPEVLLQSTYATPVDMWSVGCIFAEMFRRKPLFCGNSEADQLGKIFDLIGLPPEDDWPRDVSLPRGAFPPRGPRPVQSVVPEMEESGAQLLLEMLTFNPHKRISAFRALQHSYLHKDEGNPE
# Chain of UniProt P15056 (whole entry, unmodified, looked up): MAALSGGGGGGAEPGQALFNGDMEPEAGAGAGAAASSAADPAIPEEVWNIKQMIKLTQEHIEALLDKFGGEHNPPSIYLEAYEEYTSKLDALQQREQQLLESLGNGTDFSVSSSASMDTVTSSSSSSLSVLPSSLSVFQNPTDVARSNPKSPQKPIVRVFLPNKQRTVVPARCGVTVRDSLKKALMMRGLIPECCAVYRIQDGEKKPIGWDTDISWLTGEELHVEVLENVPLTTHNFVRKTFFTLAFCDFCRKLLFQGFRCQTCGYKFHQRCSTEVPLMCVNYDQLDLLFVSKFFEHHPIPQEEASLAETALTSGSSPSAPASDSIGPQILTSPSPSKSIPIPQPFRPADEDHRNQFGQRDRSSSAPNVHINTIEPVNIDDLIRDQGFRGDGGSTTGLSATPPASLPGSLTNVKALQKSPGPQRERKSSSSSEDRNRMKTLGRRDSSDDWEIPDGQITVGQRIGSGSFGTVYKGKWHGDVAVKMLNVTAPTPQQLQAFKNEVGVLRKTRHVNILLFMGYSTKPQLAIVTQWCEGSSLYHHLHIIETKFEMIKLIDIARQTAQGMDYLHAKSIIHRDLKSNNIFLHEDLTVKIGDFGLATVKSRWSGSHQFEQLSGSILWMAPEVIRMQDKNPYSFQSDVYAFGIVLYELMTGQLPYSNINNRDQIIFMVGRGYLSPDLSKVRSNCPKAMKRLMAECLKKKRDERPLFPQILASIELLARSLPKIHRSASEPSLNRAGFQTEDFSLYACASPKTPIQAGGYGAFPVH
# Chain of UniProt Q02763 (whole entry, looked up): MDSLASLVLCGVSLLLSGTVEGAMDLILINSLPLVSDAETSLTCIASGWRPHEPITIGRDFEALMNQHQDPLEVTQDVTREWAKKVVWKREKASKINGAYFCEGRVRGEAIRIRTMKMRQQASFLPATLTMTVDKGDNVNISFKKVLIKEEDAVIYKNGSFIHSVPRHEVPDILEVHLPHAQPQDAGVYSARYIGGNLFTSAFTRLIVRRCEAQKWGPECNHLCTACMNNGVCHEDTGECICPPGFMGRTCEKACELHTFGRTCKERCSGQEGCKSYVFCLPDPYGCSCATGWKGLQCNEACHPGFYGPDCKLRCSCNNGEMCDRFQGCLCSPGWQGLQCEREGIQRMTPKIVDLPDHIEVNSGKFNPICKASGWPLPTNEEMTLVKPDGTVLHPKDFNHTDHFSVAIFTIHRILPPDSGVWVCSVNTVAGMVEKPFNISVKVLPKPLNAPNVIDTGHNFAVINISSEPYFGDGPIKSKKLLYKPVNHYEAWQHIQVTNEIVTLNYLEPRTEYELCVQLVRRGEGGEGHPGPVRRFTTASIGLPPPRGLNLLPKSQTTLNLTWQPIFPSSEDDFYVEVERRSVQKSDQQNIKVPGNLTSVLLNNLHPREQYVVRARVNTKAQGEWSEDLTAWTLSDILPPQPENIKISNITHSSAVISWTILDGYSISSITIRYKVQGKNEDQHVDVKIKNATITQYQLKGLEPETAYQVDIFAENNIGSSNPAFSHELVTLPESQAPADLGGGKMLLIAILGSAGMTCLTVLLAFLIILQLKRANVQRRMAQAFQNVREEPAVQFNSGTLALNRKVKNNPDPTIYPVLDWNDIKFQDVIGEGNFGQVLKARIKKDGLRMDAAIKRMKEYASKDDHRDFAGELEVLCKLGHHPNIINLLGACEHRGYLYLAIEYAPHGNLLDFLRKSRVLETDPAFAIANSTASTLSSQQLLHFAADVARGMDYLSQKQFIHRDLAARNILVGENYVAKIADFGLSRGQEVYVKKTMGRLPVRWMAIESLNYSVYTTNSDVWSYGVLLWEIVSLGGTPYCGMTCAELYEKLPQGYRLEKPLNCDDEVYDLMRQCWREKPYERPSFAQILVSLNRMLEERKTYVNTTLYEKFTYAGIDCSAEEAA
Compound,target,test,setting,endpoint,result
CNc1ncc2c(/C=C/C(=O)N3CCC(OC)CC3)nn(Cc3cccc(C(F)(F)F)c3)c2n1,"Cyclin-dependent kinase 4, with cyclin D2 (CDK4, Homo sapiens, UniProt P11802)","enzyme activity, inhibitor, radiometric",1 µM,remaining activity,101%
COc1cc(-c2cncc3c2CN(C)Cc2cc(N4CCNCC4)ccc2-3)cc(OC)c1OC,PRKG2,"enzyme activity, inhibitor",1 µM,remaining activity,110%
[2H]c1c([2H])c([C@]2([2H])CCCN2C(=O)C(C)(C)Oc2ccc3cn[nH]c3c2)c([2H])c([2H])c1C([2H])([2H])[2H],"TEK (Homo sapiens, UniProt Q02763)","binding, competition with immobilised ligand",1 µM,remaining binding,77%
Cc1ccc(-c2nnc(Nc3ccc(C(=O)N4CCCCC4)cc3)c3ccccc23)cc1S(N)(=O)=O,CA9,"enzyme activity, inhibitor",,IC50,1.87 µM
CCCCC(=O)Nc1ccc(-c2ccc3ncn(CCC)c(=O)c3c2)cn1,PRKG2,"binding, competition with immobilised ligand",0.5 µM,remaining binding,100%
Cc1cc([C@@H](C)Nc2ccccc2C(=O)O)c2nc(N3CCC(F)(F)CC3)c(C#N)c(=O)n2c1,"BRAF (Homo sapiens, UniProt P15056, V600E)","binding, competition with immobilised ligand",1 µM,remaining binding,74%
C=CC(=O)N1CCC(COCC(=O)N2CCN(c3nc(-c4cnc(N)nc4C(F)F)nc(N4CCOC[C@@H]4C)n3)CC2)CC1,"PRKACB (Homo sapiens, UniProt P22694)","binding, competition with immobilised ligand",1 µM,remaining binding,93%
CC(=O)Nc1ccc(NC(=O)c2ccc(Cl)c(S(N)(=O)=O)c2)cc1,CA9,"enzyme activity, inhibitor",,IC50,0.871 µM
